Measured values from different studies.
Each numbered part is a random draw from the data of one study; scales do not carry over between parts.

Sample 1
Target: RNA binding protein fox-1 homolog 2, RRM domain, GST-SBP tag (RBFOX2, Homo sapiens, UniProt O43251-10, residues 100-194)
Technique: RNA Bind-n-Seq
Form: RNA
Sample: in vitro
Concentration: 365 nM
Notes: natural RNA segment, single round, ends assumed
Relative to: no-protein control
Reading: higher = stronger binding
Measurement: RBNS enrichment (R)
All sequences stand within: GGGAGUUCUACAGUCCGACGAUC … UGGAAUUCUCGGGUGCCAA
Residues (chain): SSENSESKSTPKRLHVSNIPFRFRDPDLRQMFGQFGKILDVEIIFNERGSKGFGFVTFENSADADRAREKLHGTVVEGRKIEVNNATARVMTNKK
Sequence = AGUGGAAUAACCAAGUCAAAAACCAUGUCAAAACUAUCCUCUGGGGGGUGCUGAGGGUGCUAUGGAGACCCACAAAUAAACAAUUACUCCUCCACUGAAUUGCUAAACAC; result = 0.411
Sequence = GAGUGUCCUGCCUGCCUUGGCUGGAGGGACACCUCUCCUGGGUGUGGAGACAGCUUGGUUCCCUUUCCCUAGCUCCCUGGUGGGUGAAUGCCACCUCCUGAGAUCCUCAC; result = 0.229
Sequence = AAAGCACAGCAGCAGUCGCUUCUGGGGAGUGCCAGUUAAAGUCAUGCAUCAGACCCUGCCAGACGUGGGCCUGCUUCUUGGCUCACCCACGUUUUGCCUUUCUCCUGCCC; result = 0.839
Sequence = CCCCCUCUUUGUAUUCUCUUUGUAUUUUUCCCCUUCUUAAAAUUUCUUUUUCUGCAAUGAAGACAGAAAGAAGGCUCUGGGGUGAUGCGUUUGGCAUUUGUGUUGAGCUU; result = 0.61
Sequence = CCAUGUCAUCUUAACCUAAAGGGAAAUCUUAUUGCGUUAUCAUAAAAUUGAUGAUAUCUUAGGGUCAGAAUUGCCCUUUUUUUUUAUUUUGAAUGGGAAGUUCUCACUAA; result = 0.374
Sequence = AAAAGCUUCCUAUAGUACAUUGGUAUGGAUUAAAUACAUAAAAUAUUCUAUUAGACUUCAUGCUGUAAAGAGAACAUGUUAUUUUGCCUCUAAACUUUGAUUUAUUGAAG; result = 0.476
Sequence = GCCAGUCAAGUAAGUUCCUGGAUCUUUGGCAAAGCCAGAGGAAGAAAGGAGCUACCUGCCCUUUCCUGGGCAUGCUUGGUGACUCAGAUUGAUCUUGGAGUGUGCAGUGG; result = 0.675
Sequence = UUUACUGUGACUUCAUGAAGAAUAUAAUUGCAAUAUCACCUAAAUUUUUAUCCUGGCUGGGAUGGGGCAGAUUCUUACUAUGGACAAUUUCUGGAACUUACAGUAUGAAG; result = 0.908
Sequence = CUCCUUCUGUCUCGGUUUGUGUCCCUUUCAUUCCCUUUUAGUAUUUGCAAGAGGAAAAUUGUCUGUGUUUUAAUCAGCUAAUGAGGAGGCUAUGGGAUGGACAGAGGGCU; result = 5.24
Sequence = GUGUUGACCUGCGUUACUGGAACUUGGAGCUACCCUGUUUGGUUACCAGUGGACUGUUAGAAAGUAUUUCAGAUACGAGCAUCUUACAGGGCAUUCCAUCCCUAGUUCUC; result = 0.84
Sequence = CCAGAGACCACCACCAGGCCCGCUCCCCACUGAGCCACUUAAGAUGAGCCCCUCAUUUGCACACAGUGACCACAUGAGCUUCCACUUACCUAACAACAGCCAUUUCAGGC; result = 0.373
Sequence = UCAGGAGAGUGAGGCACAGUGUCCAUCAUGCCAUUUAAUCUUGUGCCUGCCCUUUCCAGCCUCUUCAAAAGAUGCAUCCAAACAACAGGUCUGCAUUUGAUGUAAUGCCU; result = 0.477

Sample 2
Target: Sal-like protein 4, full length isoform B (SALL4, Homo sapiens, UniProt Q9UJQ4-2, residues 1-616)
Technique: universal PBM
Form: double-stranded DNA, one strand shown
Sample: in vitro
Concentration: not given
Notes: 8-mer, flanks averaged, mean of replicates
Reading: higher = stronger binding
Measurement: E-score
Sequence = TCTGTCCA; result = 0.0727
Sequence = CATAATCA; result = 0.37
Sequence = ATTACCAG; result = -0.0466
Sequence = CTCTTTCA; result = 0.0337
Sequence = AGTGCGGG; result = -0.181
Sequence = ATCACTGC; result = 0.0113
Sequence = TCCCATAA; result = 0.258
Sequence = GTCTGTCA; result = -0.0272
Sequence = ACCGGGCG; result = -0.353
Sequence = AGAGGCTA; result = -0.0529
Sequence = CATACCGC; result = -0.0413
Sequence = CTGACCGC; result = -0.294
Sequence = GCCACCAC; result = -0.0988
Sequence = AGTAGGCC; result = -0.181
Sequence = CTTAATGC; result = 0.176
Sequence = AGTTCCTG; result = -0.173
Sequence = AGCCGGGG; result = -0.407
Sequence = CCGTTGCA; result = -0.0444
Sequence = GGATTGCC; result = -0.236
Sequence = CAACCCAC; result = -0.0979
Sequence = CCCCTGTC; result = -0.273
Sequence = ATCTAGGG; result = 0.11
Sequence = TCACATAA; result = 0.261
Sequence = CCTGGTTC; result = -0.222
Sequence = ATGTCTAG; result = 0.22

Sample 3
Target: Centromere-binding protein 1, full length, N-terminal tag (CBF1, Saccharomyces cerevisiae, UniProt P17106, residues 1-351)
Chain of UniProt P17106 (whole entry, looked up): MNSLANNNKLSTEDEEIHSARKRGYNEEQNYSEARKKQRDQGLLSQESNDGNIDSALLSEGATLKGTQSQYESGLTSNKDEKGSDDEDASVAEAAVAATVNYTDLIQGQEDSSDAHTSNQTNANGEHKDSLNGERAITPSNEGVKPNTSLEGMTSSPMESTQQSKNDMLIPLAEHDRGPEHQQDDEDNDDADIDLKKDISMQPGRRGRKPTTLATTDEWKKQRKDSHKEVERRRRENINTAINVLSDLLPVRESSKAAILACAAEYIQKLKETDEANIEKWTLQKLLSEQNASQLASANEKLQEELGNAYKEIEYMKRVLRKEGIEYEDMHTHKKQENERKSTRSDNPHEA
Technique: protein-binding microarray
Form: double-stranded DNA, one strand shown
Sample: in vitro
Concentration: 0.8 µM
Notes: whole 60-bp probe, no competitor
Reading: higher = stronger binding
Measurement: fluorescence intensity
All sequences stand within: … GTCTTGATTCGCTTGACGCTGCTG
Sequence = CCTAACTACTATATAAGTGTGATATAGCTTCGTACA; result = 557 a.u.
Sequence = GAATTGAATCAGCTTATGGTGATGGCACATTTTTAG; result = 540 a.u.
Sequence = TGTACGAAGCTATATAAGCACGTTATAGTAGTTAGG; result = 666 a.u.
Sequence = GAATTACTTCTGTATATCGTGAAGTAGTAAGTGTAG; result = 549 a.u.
Sequence = CTACCTAGATGACAGCATCACCCGGACTGAATATTC; result = 507 a.u.
Sequence = CCTAACTACTATATTCAGATCACATAGCTTCGTACA; result = 570 a.u.
Sequence = CTAGCTTATGTAAATGGCGTGTCTGCGTAAACTTTC; result = 527 a.u.
Sequence = CTAATGCTTTGATCTGCTGATGTAGCAATGTTTTTC; result = 686 a.u.
Sequence = GAAATTGCGAGATATCACATGTGCGCTTTCCTTTAG; result = 1660 a.u.
Sequence = GAACGCGGAGTCGCTGATGACGCAATAGGCACATAG; result = 524 a.u.
Sequence = GAACTTCTACGGAAGCCCACCAGATAAGCGCCTTAG; result = 441 a.u.
Sequence = GAATGATAAAAGCATGATGTGACGAATATCTAATAG; result = 674 a.u.
Sequence = CTACCGACGAGGCTTACCGTGATCCCTCTCCAGTTC; result = 525 a.u.
Sequence = CTATATGTACGGAAAGATCACATGTATATATTTTTC; result = 3090 a.u.
Sequence = CTAGCTATCTTCAACGTGATAGTTTATGCTACTTTC; result = 823 a.u.
Sequence = CTAATTCTTTTACATCAGGCATAAAGTTTCCGATTC; result = 532 a.u.
Sequence = GAATATTGCTTGTTCAACGTGAACTGGGTACGTTAG; result = 521 a.u.
Sequence = CTACCGTTCTGTACGGACCTGACGTTGACTGTGTTC; result = 524 a.u.
Sequence = GAAAGATTAACTGACTACGTGATTTTTTAACTGTAG; result = 727 a.u.

Sample 4
Target: Interferon regulatory factor 5, full length, phosphomimetic (IRF5, Homo sapiens, UniProt Q13568-2, residues 1-514, S451D/S453D/S456D/S462D)
Technique: protein-binding microarray
Form: double-stranded DNA, one strand shown
Sample: in vitro
Concentration: 940 nM top
Notes: 60-bp whole probe
With: salmon DNA 0.4 mg/ml
Relative to: random background probes
Reading: higher = stronger binding
Measurement: fitted relative affinity
All sequences stand within: GCCTAGCAC … GTCTTGATTCGCTTGACGCTGCTG
Sequence = TACGGACTGGGGTATCGGGACGTGCTA; result = 0.528 z-score
Sequence = TGAAAACTAAGTTTATTAGAGTGCTAG; result = -0.335 z-score
Sequence = GACGATCTCAGTATCGAGACGTGCTAG; result = 2.37 z-score
Sequence = GACGGTTTCCTACTGTTGACGTGCTAG; result = 0.722 z-score
Sequence = TCACCTTACTTTATGTAACTGTGCTAG; result = 0.0825 z-score
Sequence = TTAGGACTGTACACTGGGTTAGTGCTA; result = -0.512 z-score
Sequence = GACGGGATCGACTTTCGGGACGTGCTA; result = 0.737 z-score
Sequence = GACGGTTTCGGTTTCTGGACGTGCTAG; result = 13.3 z-score
Sequence = TCATTTTTAGATTTTTTACTGTGCTAG; result = 0.643 z-score
Sequence = CCAGTTTTGTGTGTGTGTTTGTGCTAG; result = 1.09 z-score
Sequence = GACGGACTGCTACTACTGACGTGCTAG; result = -0.419 z-score
Sequence = AAACCTCACAGTTTGTAAATGTGCTAG; result = -0.546 z-score
Sequence = GACGATATCGGGTGTCGAGACGTGCTA; result = 0.13 z-score
Sequence = TTAGGTATGGACACTGGGTTAGTGCTA; result = -0.481 z-score
Sequence = GACGAACTGAGTCTTGAGACGTGCTAG; result = -0.438 z-score
Sequence = GACGATATCGGGTTTCGAGAAGTGCTA; result = 1.88 z-score
Sequence = TTAGGACTGGGTTTTCGGTTAGTGCTA; result = 1.05 z-score
Sequence = GACGGCTTCGGGTTTCGGGACGTGCTA; result = 2.1 z-score
Sequence = TCAAGAATGGGGTTTGCAACTGTGCTA; result = -0.184 z-score
Sequence = TCAACACTAATTTTCATACTGTGCTAG; result = 0.826 z-score
Sequence = TTAGATCTCAGTCTCGATTGGTGCTAG; result = 3 z-score
Sequence = GACGGACTGGGCTATCGGGACGTGCTA; result = -0.765 z-score
Sequence = TTAGGTTTCCTTTCCCTTCAGTGCTAG; result = 2.1 z-score

Sample 5
Target: Histone acetyltransferase KAT6A, both winged helices, GST fusion (KAT6A, Homo sapiens, UniProt Q92794, residues 1-181)
Technique: protein binding microarray
Form: double-stranded DNA, one strand shown
Sample: in vitro
Concentration: not given
Notes: 8-mer, flanks averaged, mean of 2 arrays, mostly near background
Relative to: not given
Reading: higher = stronger binding
Measurement: E-score
Construct (chain): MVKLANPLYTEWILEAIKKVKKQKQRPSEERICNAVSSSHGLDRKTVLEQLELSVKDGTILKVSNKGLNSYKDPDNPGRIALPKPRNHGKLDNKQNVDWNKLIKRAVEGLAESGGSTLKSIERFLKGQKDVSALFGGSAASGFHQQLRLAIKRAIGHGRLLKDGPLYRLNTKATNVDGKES
Sequence = GATCAAAA; result = -0.0674
Sequence = AATCGCAT; result = -0.0488
Sequence = CGAGATCG; result = 0.0954
Sequence = GCAAAGCA; result = -0.0512
Sequence = CCTTAACG; result = 0.0913
Sequence = AGGACGAT; result = -0.00409
Sequence = CCTCGAAA; result = -0.0384
Sequence = CTACAGCA; result = -0.0793
Sequence = CGGGTGAG; result = 0.0872
Sequence = CGGAACCA; result = 0.156
Sequence = TAAGGGGA; result = -0.252
Sequence = TAGACAAA; result = -0.182
Sequence = GCCAAGCC; result = 0.0334
Sequence = GGACTAGA; result = -0.111
Sequence = CCCAAGAG; result = -0.295
Sequence = ATCAACTC; result = -0.0427
Sequence = ACCGCACG; result = 0.202

Some of these lines once more (sample 2):
Sequence = ATCACTGC; result = 0.0113
Sequence = TCCCATAA; result = 0.258
Sequence = GTCTGTCA; result = -0.0272
Sequence = ACCGGGCG; result = -0.353
Sequence = AGAGGCTA; result = -0.0529
Sequence = CATACCGC; result = -0.0413
Sequence = CTGACCGC; result = -0.294
